Assay results pooled from the literature.
Protocols differ between the studies behind these lines. ± gives the spread as reported. Converted amounts (≈) assume the structure as drawn.
Organism: Escherichia coli

The IC50 of `CCCC[C@H](NC(=O)[C@@H](N)CCCN)C(=O)N[C@@H](CC1CCCCC1)C(=O)N[C@H](C(=O)N[C@H](Cc1ccccc1)C(=O)N[C@@H](Cc1cn(Cc2ccccc2)cn1)C(N)=O)[C@@H](C)CC` is reported as > 20 µg/mL (bacterial growth; ATCC 35218).
With `OC[C@H]1O[C@@H]2O[C@H]3[C@H](O)[C@@H](O)[C@@H](O[C@H]4[C@H](O)[C@@H](O)[C@@H](O[C@H]5[C@H](O)[C@@H](O)[C@@H](O[C@H]6[C@H](O)[C@@H](O)[C@@H](O[C@H]7[C@H](O)[C@@H](O)[C@@H](O[C@H]1[C@H](O)[C@H]2O)O[C@@H]7CO)O[C@@H]6CO)O[C@@H]5CO)O[C@@H]4CO)O[C@@H]3CO` the inhibition was 4 ± 6% (LuxR reporter, antagonist; DH5α sensor strain; 40 µM, with: OHHL 200 nM).
The MIC80 of `Cc1cc(O)c(=O)c(O)cc1C(=O)C1CC1` is reported as 29.6 µM (≈ 6.52 µg/mL) (microbial growth, broth dilution; ATCC35218).
`CC(CCCOC(=O)CCC[N+](C)(C)C)C1CCC2C3CCC4CC(OC(=O)CCC[N+](C)(C)C)CCC4(C)C3CC(OC(=O)CCC[N+](C)(C)C)C12C` (centres unmarked) gave an inhibition zone of 7 mm (microbial growth, disc diffusion; ATCC25922; 15.6 µg/disc, 24 h).
`COc1ccc2ccc(O)c(/C=N/[C@H]3CCCC[C@H]3/N=C/c3cccc(C)c3O)c2c1` has an MIC of > 40 µM (microbial growth, broth dilution).
The inhibition of `CO[C@@H]1[C@@H](OC)[C@H]2O[C@H]3[C@H](OC)[C@@H](OC)[C@@H](O[C@H]4[C@H](OC)[C@@H](OC)[C@@H](O[C@H]5[C@H](OC)[C@@H](OC)[C@@H](O[C@H]6[C@H](OC)[C@@H](OC)[C@@H](O[C@H]7[C@H](OC)[C@@H](OC)[C@@H](O[C@H]8[C@H](OC)[C@@H](OC)[C@@H](O[C@@H]1[C@@H](Cn1cc(CCCC(=O)N[C@H]9CCOC9=O)nn1)O2)O[C@@H]8Cn1cc(CCCC(=O)N[C@H]2CCOC2=O)nn1)O[C@@H]7Cn1cc(CCCC(=O)N[C@H]2CCOC2=O)nn1)O[C@@H]6Cn1cc(CCCC(=O)N[C@H]2CCOC2=O)nn1)O[C@@H]5Cn1cc(CCCC(=O)N[C@H]2CCOC2=O)nn1)O[C@@H]4Cn1cc(CCCC(=O)N[C@H]2CCOC2=O)nn1)O[C@@H]3Cn1cc(CCCC(=O)N[C@H]2CCOC2=O)nn1` is reported as 15 ± 2% (LuxR reporter, antagonist; DH5α sensor strain; 200 µM, with: OHHL 200 nM).
With `CC(CCCOC(=O)CCC[N+](C)(C)C)C1CCC2C3CCC4CC(OC(=O)CCC[N+](C)(C)C)CCC4(C)C3CCC12C` (centres unmarked) the inhibition zone was 12 mm (microbial growth, disc diffusion; ATCC25922; 31.2 µg/disc, 24 h).
For `COc1cc2c(cc1OC)C1Cc3ccc(OC)c(OC)c3C[NH+]1CC2.[Cl][Fe-]([Cl])([Cl])[Cl]` (centres unmarked), the MBC was > 1600 µM (24 h, 37 °C).
`CC[C@H](C)[C@H](NC(=O)[C@H](CC1CCCCC1)NC(=O)[C@H]1CCCN1C(=O)[C@@H](N)CCCN)C(=O)N[C@H](Cc1ccccc1)C(=O)N[C@@H](Cc1cn(Cc2ccccc2)cn1)C(N)=O` has an IC50 of > 20 µg/mL (bacterial growth; ATCC 35218).
For `C=CCOc1c(C)c(OC)c(C(=O)/C=C/c2ccccc2)c(OCC=C)c1C`, the MBC was > 5000 µg/mL (microbial killing, broth dilution; ATCC25922).
`CC(C)C1=CC2=CCC3C(C)(C(=O)OCCC[N+](C)(C)C)CCCC3(C)C2CC1` (centres unmarked) gave an inhibition zone of 9 mm (microbial growth, disc diffusion; ATCC25922; 15.6 µg/disc, 24 h).
The bioluminescence of `O=C(CCCc1cn(C[C@H]2O[C@@H]3O[C@H]4[C@H](O)[C@@H](O)[C@@H](O[C@H]5[C@H](O)[C@@H](O)[C@@H](O[C@H]6[C@H](O)[C@@H](O)[C@@H](O[C@H]7[C@H](O)[C@@H](O)[C@@H](O[C@H]8[C@H](O)[C@@H](O)[C@@H](O[C@H]2[C@H](O)[C@H]3O)O[C@@H]8Cn2cc(CCCC(=O)N[C@H]3CCOC3=O)nn2)O[C@@H]7Cn2cc(CCCC(=O)N[C@H]3CCOC3=O)nn2)O[C@@H]6Cn2cc(CCCC(=O)N[C@H]3CCOC3=O)nn2)O[C@@H]5Cn2cc(CCCC(=O)N[C@H]3CCOC3=O)nn2)O[C@@H]4Cn2cc(CCCC(=O)N[C@H]3CCOC3=O)nn2)nn1)N[C@H]1CCOC1=O` is reported as 890 ± 99 RLU (LuxR reporter, agonist; DH5α sensor strain; 1 µM).
`O=C(Oc1cccccc1=O)c1cccc(Cl)c1` has an MIC80 of > 100 µM (microbial growth, broth dilution; ATCC35218).
`COc1cc(C(=O)Nc2ccc(C(=O)O)cc2)ccc1NC(=O)c1ccc(NC(=O)[C@H](Cc2c[nH]nn2)NC(=O)c2ccc(NC(=O)/C(C)=C/c3ccc(O)cc3)cc2)cc1` has an MIC of 32 µg/mL (broth microdilution; ciprofloxacin-sensitive).
With `COc1c(C)c(OC(=O)c2ccccc2)c(C)c(OC(=O)c2ccccc2)c1C(=O)/C=C/c1ccccc1` the MBC was > 5000 µg/mL (microbial killing, broth dilution; ATCC25922).
The inhibition of `CO[C@@H]1[C@@H](OC)[C@H]2O[C@H]3[C@H](OC)[C@@H](OC)[C@@H](O[C@H]4[C@H](OC)[C@@H](OC)[C@@H](O[C@H]5[C@H](OC)[C@@H](OC)[C@@H](O[C@H]6[C@H](OC)[C@@H](OC)[C@@H](O[C@H]7[C@H](OC)[C@@H](OC)[C@@H](O[C@@H]1[C@@H](Cn1cc(CCCC(=O)N[C@H]8CCOC8=O)nn1)O2)O[C@@H]7Cn1cc(CCCC(=O)N[C@H]2CCOC2=O)nn1)O[C@@H]6Cn1cc(CCCC(=O)N[C@H]2CCOC2=O)nn1)O[C@@H]5Cn1cc(CCCC(=O)N[C@H]2CCOC2=O)nn1)O[C@@H]4Cn1cc(CCCC(=O)N[C@H]2CCOC2=O)nn1)O[C@@H]3Cn1cc(CCCC(=O)N[C@H]2CCOC2=O)nn1` is reported as 12 ± 1% (LuxR reporter, antagonist; DH5α sensor strain; 20 µM, with: OHHL 200 nM).
The MDC of `CC(C)C[C@H](NC(=O)[C@H](Cc1ccc(O)cc1)NC(=O)[C@@H]1CCCN1C(=O)[C@H](CCCNC(=N)N)NC(=O)[C@@H]1CCCN1C(=O)[C@H](CCCCN)NC(=O)[C@H](CC(=O)O)NC(=O)[C@@H]1CCCN1C(=O)[C@H](CCCNC(=N)N)NC(=O)C1(N)CCCCC1)C(=O)N1CCC[C@H]1C(=O)N[C@@H](CCCNC(=N)N)C(=O)N1CCC[C@H]1C(=O)N[C@@H](CCCNC(=N)N)C(=O)N1CCC[C@H]1C(=O)N1CCC[C@H]1C(=O)N[C@@H](CCCNC(=N)N)C(=O)N1CCC[C@H]1C(=O)N[C@H](C(=O)N[C@@H](CCCNC(=N)N)C(=O)N[C@@H](CSCc1cccc(CSC[C@H](NC(=O)[C@H](CCCNC(=N)N)NC(=O)[C@@H](NC(=O)[C@@H]2CCCN2C(=O)[C@H](CCCNC(=N)N)NC(=O)[C@@H]2CCCN2C(=O)[C@@H]2CCCN2C(=O)[C@H](CCCNC(=N)N)NC(=O)[C@@H]2CCCN2C(=O)[C@H](CCCNC(=N)N)NC(=O)[C@@H]2CCCN2C(=O)[C@H](CC(C)C)NC(=O)[C@H](Cc2ccc(O)cc2)NC(=O)[C@@H]2CCCN2C(=O)[C@H](CCCNC(=N)N)NC(=O)[C@@H]2CCCN2C(=O)[C@H](CCCCN)NC(=O)[C@H](CC(=O)O)NC(=O)[C@@H]2CCCN2C(=O)[C@H](CCCNC(=N)N)NC(=O)C2(N)CCCCC2)C(C)C)C(=O)NN)c1)C(=O)NN)C(C)C` is reported as 19.8 ± 0.8 µg/mL (membrane disruption, propidium iodide uptake; 25922; 90 min, 37 °C).
`COc1c(C)c(OC(=O)c2ccc3ccccc3c2)c(C)c(O)c1C(=O)/C=C/c1ccccc1` gave an MBC of > 5000 µg/mL (microbial killing, broth dilution; ATCC25922).
The inhibition of `O=C(CCCc1cn(C[C@H]2O[C@@H]3O[C@H]4[C@H](O)[C@@H](O)[C@@H](O[C@H]5[C@H](O)[C@@H](O)[C@@H](O[C@H]6[C@H](O)[C@@H](O)[C@@H](O[C@H]7[C@H](O)[C@@H](O)[C@@H](O[C@H]8[C@H](O)[C@@H](O)[C@@H](O[C@H]9[C@H](O)[C@@H](O)[C@@H](O[C@H]2[C@H](O)[C@H]3O)O[C@@H]9CO)O[C@@H]8CO)O[C@@H]7CO)O[C@@H]6CO)O[C@@H]5CO)O[C@@H]4CO)nn1)N[C@H]1CCOC1=O` is reported as 7 ± 6% (LuxR reporter, antagonist; DH5α sensor strain; 40 µM, with: OHHL 200 nM).
`CC[C@H](C)[C@H](NC(=O)[C@H](CCCN)NC(=O)[C@H](CC(N)=O)NC(=O)[C@H](Cc1c[nH]c2ccccc12)NC(=O)[C@H](Cc1ccccc1)NC(=O)[C@H](CCCN)NC(=O)[C@H](CCCCNC(=N)N)NC(=O)[C@H](CC(C)C)NC(=O)[C@H](Cc1c[nH]c2ccccc12)NC(=O)[C@H](CCCN)NC(=O)[C@H](CCCCNC(=N)N)NC(=O)[C@H](CC(C)C)NC(=O)CNC(C)=O)C(=O)N[C@@H](CCCN)C(=O)N[C@@H](CCCCNC(=N)N)C(N)=O` — result for “MIC fold change”: 1 fold (ATCC 25922; concentration not given, with: MgCl2 1 mM; relative to: no added salt).
For `N=C(N)NCCC[C@@H]1NC(=O)[C@H](CCCNC(=N)N)NC(=O)[C@@H](CCCNC(=N)N)NC(=O)[C@@H](CCCNC(=N)N)NC(=O)[C@@H](C(c2ccccc2)c2ccccc2)NC(=O)[C@H](Cc2c[nH]c3ccccc23)NC(=O)[C@@H](C(c2ccccc2)c2ccccc2)NC1=O`, “biofilm mass reduction” read 63 to 69% (ATCC BAA-2452; 2 x MIC, 24 h, preformed biofilm).
With `O=C(CCCc1cn(C[C@H]2O[C@@H]3O[C@H]4[C@H](O)[C@@H](O)[C@@H](O[C@H]5[C@H](O)[C@@H](O)[C@@H](O[C@H]6[C@H](O)[C@@H](O)[C@@H](O[C@H]7[C@H](O)[C@@H](O)[C@@H](O[C@H]8[C@H](O)[C@@H](O)[C@@H](O[C@H]9[C@H](O)[C@@H](O)[C@@H](O[C@H]2[C@H](O)[C@H]3O)O[C@@H]9Cn2cc(CCCC(=O)N[C@H]3CCOC3=O)nn2)O[C@@H]8Cn2cc(CCCC(=O)N[C@H]3CCOC3=O)nn2)O[C@@H]7Cn2cc(CCCC(=O)N[C@H]3CCOC3=O)nn2)O[C@@H]6Cn2cc(CCCC(=O)N[C@H]3CCOC3=O)nn2)O[C@@H]5Cn2cc(CCCC(=O)N[C@H]3CCOC3=O)nn2)O[C@@H]4Cn2cc(CCCC(=O)N[C@H]3CCOC3=O)nn2)nn1)N[C@H]1CCOC1=O` the inhibition was 36 ± 6% (LuxR reporter, antagonist; DH5α sensor strain; 10 µM, with: OHHL 200 nM).
With `CC(NC(=O)c1ccccc1)C(CCCCCCCCCCCCCCC(=O)CCCCCCCC(OC(=O)c1ccccc1)C(C)NC(=O)c1ccccc1)OC(=O)c1ccccc1` (centres unmarked) the growth inhibition was 0 ± 4.89% (resazurin; ATCC 10536; 50 µM).
